Measurements of several laboratories.
Lines come from different studies, so protocols differ.
Cell line: SN12C

Compound | test | setting | how to read | measurement | value
O=C(Nc1nnc2[nH]c(=S)[nH]c(-c3ccc(Cl)cc3)c1-2)c1ccccc1 | SRB | 10 µM, NCI60 single-dose screen | reference: untreated | cell growth | 100%
CCCN1CCN(c2ccc3nc(-c4ccc5nc(-c6cc(OC)ccc6OC)[nH]c5c4)[nH]c3c2)CC1 | SRB | 10 µM, 48 h | – | growth percent | 99.2%
Cn1cncc1C1=CN(c2ncnc3[nH]cnc23)CCS1 | – | renal cancer | – | TGI | 67.6 µM
O=C1NCCc2[nH]c(-c3ccncc3)cc21 | MTS | NCI60 panel | – | IC50 | 10 µM
S=C([S][Au-][P+](CCCCCC[P+]([Au-][S]C(=S)n1cccn1)(c1ccccc1)c1ccccc1)(c1ccccc1)c1ccccc1)n1cccn1 | cell growth, NCI-60 screen | renal cancer | – | log10 TGI | > -4
Cc1n[nH]c2nc(-c3ccc(Cl)cc3)c3c(NC(=O)c4ccccc4)nnc-3n12 | SRB | 10 µM, NCI60 single-dose screen | reference: untreated | cell growth | 104%
C#C[C@@]1(O)[C@@H](CO)O[C@@H](n2cc(F)c3c(N)ncnc32)[C@@H]1O | SRB | NCI-60 screen | – | TGI | 4.74 µM
CCCN1CCN(c2ccc3[nH]c(-c4ccc5[nH]c(-c6cc(OC)c(OC)c(OC)c6)nc5c4)nc3c2)CC1 | SRB | 10 µM, 48 h | – | growth percent | 85.4%
CSc1nc(-c2ccc(Cl)cc2)c2c(NC(=O)c3ccccc3)nnc-2[nH]1 | SRB | 10 µM, NCI60 single-dose screen | reference: untreated | cell growth | 92.4%
CCCCN1CCN(c2ccc3[nH]c(-c4ccc5[nH]c(-c6ccc(OCC)c(OCC)c6)nc5c4)nc3c2)CC1 | SRB | 10 µM, 48 h | – | growth percent | 18.8%
CCOC(=O)CSc1nc(-c2ccc(Cl)cc2)c2c(NC(=O)c3ccccc3)nnc-2[nH]1 | SRB | 10 µM, NCI60 single-dose screen | reference: untreated | cell growth | 97.9%
CCCCN1CCN(c2ccc3[nH]c(-c4ccc5[nH]c(-c6cc(OC)c(OC)c(OC)c6)nc5c4)nc3c2)CC1 | SRB | 10 µM, 48 h | – | growth percent | 80.2%
C#C[C@@]1(O)[C@@H](CO)O[C@@H](n2cc(I)c3c(N)ncnc32)[C@@H]1O | SRB | NCI-60 screen | – | TGI | > 100 µM
CN1CCN(c2ccc3[nH]c(-c4ccc5[nH]c(-c6ccc(C(F)(F)F)cc6)nc5c4)nc3c2)CC1 | SRB | 10 µM, 48 h | – | growth percent | 80.3%
O=C(Nc1nnc2n3c(=S)[nH][nH]c3nc(-c3ccc(Cl)cc3)c1-2)c1ccccc1 | SRB | 10 µM, NCI60 single-dose screen | reference: untreated | cell growth | 97.1%
